Measured values gathered from unrelated publications.
Each line is one published result; not all experiments were run side by side. ± marks the error that the study gave.
Method: steady-state kinetics
B1: LYS1 C205S/D319A (Saccharomyces cerevisiae, UniProt P38998); chain MAAVTLHLRAETKPLEARAALTPTTVKKLIAKGFKIYVEDSPQSTFNINEYRQAGAIIVPAGSWKTAPRDRIIIGLKEMPETDTFPLVHEHIQFAHCYKDQAGWQNVLMRFIKGHGTLYDLEFLENDQGRRVAAFGFYAGFAGAALGVRDWAFKQTHSDDEDLPAVSPYPNEKALVKDVTKDYKEALATGARKPTVLIIGALGRSGSGAIDLLHKVGIPDANILKWDIKETSRGGPFDEIPQADIFINCIYLSKPIAPFTNMEKLNNPNRRLRTVVDVSADTTNPHNPIPIYTVATVFNKPTVLVPTTAGPKLSVISIAHLPSLLPREASEFFSHDLLPSLELLPQRKTAPVWVRAKKLFDRHCARVKRSSRL
B2: ALDH4A1 S352A (Homo sapiens, UniProt P30038); chain TGAGLRWKHTSSLKVANEPVLAFTQGSPERDALQKALKDLKGRMEAIPCVVGDEEVWTSDVQYQVSPFNHGHKVAKFCYADKSLLNKAIEAALAARKEWDLKPIADRAQIFLKAADMLSGPRRAEILAKTMVGQGKTVIQAEIDAAAELIDFFRFNAKYAVELEGQQPISVPPSTNSTVYRGLEGFVAAISPFNFTAIGGNLAGAPALMGNVVLWKPSDTAMLASYAVYRILREAGLPPNIIQFVPADGPLFGDTVTSSEHLCGINFTGSVPTFKHLWKQVAQNLDRFHTFPRLAGECGGKNFHFVHRSADVESVVSGTLRSAFEYGGQKCSACARLYVPHSLWPQIKGRLLEEHSRIKVGDPAEDFGTFFSAVIDAKSFARIKKWLEHARSSPSLTILAGGKCDDSVGYFVEPCIVESKDPQEPIMKEEIFGPVLSVYVYPDDKYKETLQLVDSTTSYGLTGAVFSQDKDVVQEATKVLRNAAGNFYINDKSTGSIVGQQPFGGARASGTNDKPGGPHYILRWTSPQVIKETHKPLGDWSYAYMQ
B3: SUOX P184A (Homo sapiens, UniProt P51687); chain ESTHIYTKEEVSSHTSPETGIWVTLGSEVFDVTEFVDLHPGGPSKLMLAAGGPLEPFWALYAVHNQSHVRELLAQYKIGELNPEDKVAPTVETSDPYADDPVRHAALKVNSQRPFNAEPPPELLTENYITPNPIFFTRNHLPVPNLDPDTYRLHVVGAPGGQSLSLSLDDLHNFPRYEITVTLQCAGNRRSEMTQVKEVKGLEWRTGAISTARWAGARLCDVLAQAGHQLCETEAHVCFEGLDSDPTGTAYGASIPLARAMDPEAEVLLAYEMNGQPLPRDHGFPVRVVVPGVVGARHVKWLGRVSVQPEESYSHWQRRDYKGFSPSVDWETVDFDSAPSIQELPVQSAITEPRDGETVESGEVTIKGYAWSGGGRAVIRVDVSLDGGLTWQVAKLDGEEQRPRKAWAWRLWQLKAPVPAGQKELNIVCKAVDDGYNVQPDTVAPIWNLRGVLSNAWHRVHVYVSP
B4: pol D141A/E143A/G245D (Thermococcus kodakarensis, UniProt P77933); chain 1 MILDTDYITEDGKPVIRIFKKENGEFKIEYDRTFEPYFYALLKDDSAIEEVKKITAERHGTVVTVKRVEKVQKKFLGRPVEVWKLYFTHPQDVPAIRDKIREHPAVIDIYEYDIPFAKRYLIDKGLVPMEGDEELKMLAFAIATLYHEGEEFAEGPILMISYADEEGARVITWKNVDLPYVDVVSTEREMIKRFLRVVKEKDPDVLITYNGDNFDFAYLKKRCEKLGINFALGRDGSEPKIQRMDDRFAVEVKGRIHFDLYPVIRRTINLPTYTLEAVYEAVFGQPKEKVYAEEITTAWETGENLERVARYSMEDAKVTYELGKEFLPMEAQLSRLIGQSLWDVSRSSTGNLVEWFLLRKAYERNELAPNKPDEKELARRRQSYEGGYVKEPERGLWENIVYLDFR; chain 2 SLYPSIIITHNVSPDTLNREGCKEYDVAPQVGHRFCKDFPGFIPSLLGDLLEERQKIKKKMKATIDPIERKLLDYRQRAIKILAN; chain 3 NSYYGYYGYARARWYCKECAESVTAWGREYITMTIKEIEEKYGFKVIYSDTDGFFATIPGADAETVKKKAMEFLKYINAKLPGALELEYEGFYKRGFFVTKKKYAVIDEEGKITTRGLEIVRRDWSEIAKETQARVLEALLKDGDVEKAVRIVKEVTEKLSKYEVPPEKLVIHEQITRDLKDYKATGPHVAVAKRLAARGVKIRPGTVISYIVLKGSGRIGDRAIPFDEFDPTKHKYDAEYYIENQVLPAVERILRAFGYRKEDLRYQKTRQVGLSAWLKPKGT
B5: SUOX R529M/Y400N (Homo sapiens, UniProt P51687); chain ESTHIYTKEEVSSHTSPETGIWVTLGSEVFDVTEFVDLHPGGPSKLMLAAGGPLEPFWALYAVHNQSHVRELLAQYKIGELNPEDKVAPTVETSDPYADDPVRHPALKVNSQRPFNAEPPPELLTENYITPNPIFFTRNHLPVPNLDPDTYRLHVVGAPGGQSLSLSLDDLHNFPRYEITVTLQCAGNRRSEMTQVKEVKGLEWRTGAISTARWAGARLCDVLAQAGHQLCETEAHVCFEGLDSDPTGTAYGASIPLARAMDPEAEVLLAYEMNGQPLPRDHGFPVRVVVPGVVGARHVKWLGRVSVQPEESYSHWQRRDNKGFSPSVDWETVDFDSAPSIQELPVQSAITEPRDGETVESGEVTIKGYAWSGGGRAVIRVDVSLDGGLTWQVAKLDGEEQRPRKAWAWRLWQLKAPVPAGQKELNIVCKAVDDGYNVQPDTVAPIWNLMGVLSNAWHRVHVYVSP
B6: Nudt8 (Mus musculus, UniProt Q9CR24); chain MLPDGLSAEDEQRCRQLLARTTARLRSRPAAAAVLVPLCLVRGVPALLYTLRSSRLVGRHKGEVSFPGGKCDPDDQDVIHTALRETQEELGLEVPKEHVWGVLQPVYDREKATIVPVLANVGPLDLQSLRPNLEEVDEVFEMSLAHLLQTQNQGYTHFCQGGHFSYTLPVFLHGPHRVWGLTAVITELTLKLLAPGFYQPSLAVPELPRG
B7: Tcur_2987 W263F/W376F (Thermomonospora curvata, UniProt D1A807); chain ACSEERAAGARPSATQTTGTATEPFHGPHQAGIATPPQAHAVFLGLDLRKGTGRKELGRLMRLLTDDARRLTQGRPALADPEPDLAPLPSRLTFTFGFGPGLFKAAGLEKQRPEGLRPLPPFKVDRLEDRWSGGDLLVQICCDDPITLAHALRMTVKDARAFTRVRWVQRGFRRSPGVQSSGATQRNLMGQLDGTVNPVPGTADFDQAVWVQDGPEWLRGGTTLVLRRIRMELEKFDEADPAGKEFAVGRRLTSGAPLTGRHEHDEPDFDAVDSAGFPVIAENAHIRLAHVDSPRLRMLRRPYNYDEGLTADGRSDAGLLFAAYQADIDRQFIPVQRRLDEGGDLLNLFTTPIGSAVFAIPPGCDENGWIGQGLLG
B8: onr (Enterobacter cloacae, UniProt P71278); chain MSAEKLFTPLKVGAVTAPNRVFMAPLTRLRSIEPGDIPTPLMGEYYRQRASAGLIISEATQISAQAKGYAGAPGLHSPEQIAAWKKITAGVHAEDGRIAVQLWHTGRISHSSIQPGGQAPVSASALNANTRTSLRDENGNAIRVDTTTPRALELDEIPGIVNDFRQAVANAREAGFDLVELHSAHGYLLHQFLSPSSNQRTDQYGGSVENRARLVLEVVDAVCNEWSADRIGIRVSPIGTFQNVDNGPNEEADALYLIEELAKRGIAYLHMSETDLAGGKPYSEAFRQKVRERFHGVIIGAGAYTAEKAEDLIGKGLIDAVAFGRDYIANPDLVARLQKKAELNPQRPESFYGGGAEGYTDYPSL
B9: HGXPRT (Trypanosoma cruzi, UniProt Q4DRC3); chain MISSQQAMVHVVSRNAEGVIVVDGKAYPMAEELVATESVIQRSIKAVAKQIADFYRPLSHRDTHGGGGVAPISDENPLIIISVLKGSYIFTADMVRYLGDYGLPHVVDFLRVASYRGTSSTNKMKLLAETQFKALRGKHVLILEDIVDSGKTLRYILDKVQREHQPATLKVCVLADKPGGRRVTMQPDFVCLTVPNKYVIGYGFEVNDRFRCFRHIFTLRPGEARRYPAHL
B10: protein (Shewanella denitrificans, UniProt Q12KT8); chain MIHKLADVQSQNIGDNTKVWQFCVILAGAVIGRNCNICANSLIENDVVIGDNVTIKSGVQIWDGIHIQDDVFIGPNVTFTNDKQPRSKIYPDEYLKTIVKKGASIGANSTILPGILIGENAMVGAGAVITKNVPDNAIVIGNPGRITGYVEANTGVIMPSNNFELKLQMSKVKGVSLHKFHLVNDLRGNLSVGEFEKDIPFTPKRYFTVFGVPNKEVRGEHAHKECKQFLICVSGNCSVLVDDGENREEYVLDSIDKGIYLPPMTWGVQYKYSKDAVLLVFASHYYDSDDYIRDYSTFKQMRQN
B11: protein G96D/P94L (Streptomyces coelicolor, UniProt P16544); chain MATQDSEVALVTGATSGIGLEIARRLGKEGLRVFVCARGEEGLRTTLKELREAGVEADGRTCDVRSVPEIEALVAAVVERYGPVDVLVNNAGRLGDGATAELADELWLDVVETNLTGVFRVTKQVLKAGGMLERGTGRIVNIASTGGKQGVVHAAPYSASKHGVVGFTKALGLELARTGITVNAVCPGFVETPMAASVREHYSDIWEVSTEEAFDRITARVPIGRYVQPSEVAEMVAYLIGPGAAAVTAQALNVCGGLGNY
Sequence of UniProt P38999 (whole entry, looked up): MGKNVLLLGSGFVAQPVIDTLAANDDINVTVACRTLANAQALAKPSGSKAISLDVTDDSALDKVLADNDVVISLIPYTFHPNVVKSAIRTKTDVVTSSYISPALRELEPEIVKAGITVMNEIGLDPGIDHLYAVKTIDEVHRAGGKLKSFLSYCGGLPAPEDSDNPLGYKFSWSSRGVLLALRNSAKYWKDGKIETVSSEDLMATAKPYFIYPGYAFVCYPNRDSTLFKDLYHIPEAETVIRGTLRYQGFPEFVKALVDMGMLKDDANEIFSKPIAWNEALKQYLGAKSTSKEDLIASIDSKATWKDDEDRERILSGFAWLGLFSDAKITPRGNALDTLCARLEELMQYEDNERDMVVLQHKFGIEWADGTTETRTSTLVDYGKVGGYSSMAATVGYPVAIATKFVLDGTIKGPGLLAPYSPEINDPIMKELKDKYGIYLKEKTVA
Sequence of UniProt Q99042 (whole entry, looked up): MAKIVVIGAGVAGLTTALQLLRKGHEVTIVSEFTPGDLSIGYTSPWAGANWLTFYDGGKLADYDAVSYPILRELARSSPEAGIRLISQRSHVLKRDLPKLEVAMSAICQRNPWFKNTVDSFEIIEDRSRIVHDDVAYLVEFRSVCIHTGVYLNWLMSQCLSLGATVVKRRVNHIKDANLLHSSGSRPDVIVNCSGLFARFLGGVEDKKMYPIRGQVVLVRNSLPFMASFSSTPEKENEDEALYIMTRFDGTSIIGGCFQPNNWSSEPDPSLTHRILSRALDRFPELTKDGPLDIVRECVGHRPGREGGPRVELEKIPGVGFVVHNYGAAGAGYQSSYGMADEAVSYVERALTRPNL
Sequence of UniProt Q48796 (whole entry, looked up): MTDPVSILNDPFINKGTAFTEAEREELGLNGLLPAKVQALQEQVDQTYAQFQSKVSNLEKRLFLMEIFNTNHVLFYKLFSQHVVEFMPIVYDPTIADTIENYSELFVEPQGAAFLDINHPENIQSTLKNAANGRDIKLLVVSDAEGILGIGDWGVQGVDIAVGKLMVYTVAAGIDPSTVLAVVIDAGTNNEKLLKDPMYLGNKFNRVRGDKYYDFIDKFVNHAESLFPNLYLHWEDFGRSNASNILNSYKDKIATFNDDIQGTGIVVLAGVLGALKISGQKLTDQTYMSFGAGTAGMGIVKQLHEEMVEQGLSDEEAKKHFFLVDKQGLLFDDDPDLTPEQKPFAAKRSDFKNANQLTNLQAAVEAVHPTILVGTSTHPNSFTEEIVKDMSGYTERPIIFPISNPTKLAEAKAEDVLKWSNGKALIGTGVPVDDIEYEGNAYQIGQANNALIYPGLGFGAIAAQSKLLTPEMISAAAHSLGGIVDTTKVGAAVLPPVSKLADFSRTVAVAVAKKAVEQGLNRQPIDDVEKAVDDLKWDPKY

| Molecule | substrate | conditions | kcat [s⁻¹] |
| --- | --- | --- | --- |
| B1 (LYS1 C205S/D319A) | NCCCC[C@H](N)C(=O)O | pH 7.2, 25 °C, added: NADH and α-Kg | 35 ± 5 |
| DAO1 (Trigonopsis variabilis, UniProt Q99042) | Nc1ccc2nc3ccc(N)cc3[s+]c2c1 | pH 8, 22 °C, apparent | 0.161 ± 0.004 |
| B2 (ALDH4A1 S352A) | NC(=O)c1ccc[n+]([C@@H]2O[C@H](COP(=O)(O)OP(=O)(O)OC[C@H]3O[C@@H](n4cnc5c(N)ncnc54)[C@H](O)[C@@H]3O)[C@@H](O)[C@H]2O)c1 | pH 7, 20 °C, sodium phosphate 0.1 M, cofactor varied, added: L-P5C | 5 |
| AphC (Rhodococcus jostii, UniProt Q0S9X1) | CCCc1ccc(O)c(O)c1 | pH 8, 25 °C, apparent, added: O2 | 0.205 |
| B3 (SUOX P184A) | O=S(O)O | pH 8, 25 °C, added: oxidized cyt c 400 µM | 39 ± 2 |
| B4 (pol D141A/E143A/G245D) | Nc1nc2c(ncn2[C@H]2C[C@H](O)[C@@H](COP(=O)(O)OP(=O)(O)OP(=O)(O)O)O2)c(=O)[nH]1 | pH 8, 55 °C | 7 ± 0.9 |
| B5 (SUOX R529M/Y400N) | O=[N+]([O-])O | pH 7, 25 °C, added: dithionite-reduced methyl viologen | 0.82 |
| alanine aminopeptidase (Neisseria meningitidis, UniProt Q9JYV4) | NC(=O)Cc1cc(=O)oc2cc(NC(=O)[C@@H](N)C3Cc4ccccc4C3)ccc12 | pH 7.5, 37 °C | 1.72 ± 0.08 |
| B6 (Nudt8) | CC(C)(COP(=O)(O)OP(=O)(O)OC[C@H]1O[C@@H](n2cnc3c(N)ncnc32)[C@H](O)[C@@H]1OP(=O)(O)O)[C@@H](O)C(=O)NCCC(=O)NCCS | pH 8.5, added: 2 mM Mn2+ | 3.6 ± 0.133 |
| B7 (Tcur_2987 W263F/W376F) | Nc1c(S(=O)(=O)O)cc(Nc2cccc(S(=O)(=O)CCOS(=O)(=O)O)c2)c2c1C(=O)c1ccccc1C2=O | pH 3, sigmoidal kinetics, added: H2O2 1 mM | 69 ± 1 |
| B8 (onr) | CC(C)=CCC/C(C)=C/C=O | pH 7, 25 °C, apparent, anaerobic, added: NADPH 100 µM | 0.24 ± 0.004 |
| B9 (HGXPRT) | Nc1nc2nc[nH]c2c(=O)[nH]1 | pH 8.3, 37 °C, apparent, added: PRPP | 0.46 ± 0.01 |
| mleA (Oenococcus oeni, UniProt Q48796) | NC(=O)c1ccc[n+]([C@@H]2O[C@H](COP(=O)(O)OP(=O)(O)OC[C@H]3O[C@@H](n4cnc5c(N)ncnc54)[C@H](O)[C@@H]3O)[C@@H](O)[C@H]2O)c1 | pH 6, 45 °C, cofactor varied | 227 ± 3.35 |
| Saccharopine reductase (Saccharomyces cerevisiae, UniProt P38999) | NC(=O)C1=CN([C@@H]2O[C@H](COP(=O)(O)OP(=O)(O)OC[C@H]3O[C@@H](n4cnc5c(N)ncnc54)[C@H](OP(=O)(O)O)[C@@H]3O)[C@@H](O)[C@H]2O)C=CC1 | pH 7, 25 °C, added: AASA, L-glutamate | 1.9 ± 0.1 |
| B10 (protein) | Cc1cn([C@H]2C[C@H](O)[C@@H](COP(=O)(O)OP(=O)(O)O[C@H]3O[C@H](C)[C@H](O)[C@H](N)[C@H]3O)O2)c(=O)[nH]c1=O | pH 8.5, added: acetyl-CoA 2 mM | 4.4 ± 0.3 |
| enzyme (Mortierella alpina, UniProt U5Y3C6) | CCCCCC/C=C\CCCCCCCC(=O)SCCNC(=O)CCNC(=O)[C@H](O)C(C)(C)COP(=O)(O)OP(=O)(O)OC[C@H]1O[C@@H](n2cnc3c(N)ncnc32)[C@H](O)[C@@H]1OP(=O)(O)O | pH 7.5, 28 °C | 0.005 ± 0.000333 |
| B11 (protein G96D/P94L) | O[C@H]1CCCc2ccccc21 | pH 7.4, phosphate 400 mM, NADPH 250 µM printed, added: NADP+, reverse reaction | 0.23 ± 0.02 |

For quick reference, copied from above:
| Molecule | substrate | conditions | kcat [s⁻¹] |
| --- | --- | --- | --- |
| AphC (Rhodococcus jostii, UniProt Q0S9X1) | CCCc1ccc(O)c(O)c1 | pH 8, 25 °C, apparent, added: O2 | 0.205 |
| B3 (SUOX P184A) | O=S(O)O | pH 8, 25 °C, added: oxidized cyt c 400 µM | 39 ± 2 |
